Measured values gathered from unrelated publications.
Every numbered part comes from another study and shows a few of its results, in no order.

Sample 1
Target: Interferon regulatory factor 5, full length, phosphomimetic (IRF5, Homo sapiens, UniProt Q13568-2, residues 1-514, K96S/S451D/S453D/S456D/S462D)
Technique: protein-binding microarray
Form: double-stranded DNA, one strand shown
Matrix: in vitro
Tested at: 250 nM
Notes: 60-bp whole probe
Added: salmon DNA 0.4 mg/ml
Baseline: random background probes
Reading: higher = stronger binding
Strand	log fluorescence
GCCTAGCACTTAGATATCGGGTTTGGATTAGTGCTAGTCTTGATTCGCTTGACGCTGCTG	1.62 z-score
GCCTAGCACGTAGGTCTCCTTTTCCTTTAGTGCTAGGTCTTGATTCGCTTGACGCTGCTG	0.00195 z-score
GCCTAGCACTTAGGTCTCCTTCTCCTATAGTGCTAGGTCTTGATTCGCTTGACGCTGCTG	0.0322 z-score

Sample 2
Target: Histone acetyltransferase KAT6A, winged helix 2, GST fusion (KAT6A, Homo sapiens, UniProt Q92794, residues 85-181)
Technique: protein binding microarray
Form: double-stranded DNA, one strand shown
Matrix: in vitro
Tested at: not given
Notes: 8-mer, flanks averaged, mean of 2 arrays, mostly near background
Baseline: not given
Reading: higher = stronger binding
Target sequence (chain): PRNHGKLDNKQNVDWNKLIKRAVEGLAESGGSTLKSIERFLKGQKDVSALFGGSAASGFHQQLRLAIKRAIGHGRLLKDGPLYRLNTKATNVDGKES
Strand	E-score
AAGTGAGA	0.0766
GTAAGGCA	-0.22
CATCCTAA	0.0557

Single results of other studies
CBF1 full length, N-terminal tag: Centromere-binding protein 1, full length, N-terminal tag (CBF1, Saccharomyces cerevisiae, UniProt P17106, residues 1-351)
UniProt P17106, sequence (whole entry, looked up): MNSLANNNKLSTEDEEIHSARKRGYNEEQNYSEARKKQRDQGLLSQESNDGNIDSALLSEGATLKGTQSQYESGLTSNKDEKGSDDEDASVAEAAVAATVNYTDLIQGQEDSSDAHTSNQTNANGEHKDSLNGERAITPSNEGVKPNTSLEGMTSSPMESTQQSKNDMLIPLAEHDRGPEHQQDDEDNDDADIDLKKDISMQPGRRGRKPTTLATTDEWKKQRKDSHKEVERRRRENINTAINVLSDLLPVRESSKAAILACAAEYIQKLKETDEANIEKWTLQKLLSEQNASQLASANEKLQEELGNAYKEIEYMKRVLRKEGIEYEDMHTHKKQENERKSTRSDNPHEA
Substance	target	assay	system	conditions	how to read	measurement	value
GAATCTGGATACACCCTCGTGAAGAAATAGGGTTAGGTCTTGATTCGCTTGACGCTGCTG	CBF1 full length, N-terminal tag	protein-binding microarray	double-stranded DNA, one strand shown, in vitro	0.8 µM, whole 60-bp probe, no competitor	higher = stronger binding	fluorescence intensity	640 a.u.
PhoQ, residues 284 288 289 292 302 303 SLKLQV	PhoP, residues 12 14 15 18 19 NQCAL (Escherichia coli, UniProt P23836)	Sort-seq, item: YFP reporter	E. coli	PhoQ-PhoP variant library, added: 10 µM Mg2+	baseline: high Mg2+ state, higher = stronger signaling	fold induction	8.39
TTCGATCAAGGCAACAACGTGGTGAAAACCGTACTTGTCTTGATTCGCTTGACGCTGCTG	Centromere-binding protein 1, full length, His-tagged (CBF1, Saccharomyces cerevisiae, UniProt P17106, residues 1-351)	competition protein-binding microarray	double-stranded DNA, one strand shown, in vitro	2 µM, whole 60-bp probe, lowest competitor level, added: Pho4 competitor, 0.05 µM	higher = stronger binding	fluorescence intensity	103 a.u.
CTACAGTCACTCAGTCAGCTGATGCGATGCGATTTCGTCTTGATTCGCTTGACGCTGCTG	CBF1 full length, N-terminal tag	protein-binding microarray	double-stranded DNA, one strand shown, in vitro	0.8 µM, whole 60-bp probe, no competitor	higher = stronger binding	fluorescence intensity	2600 a.u.

Repeated from above (sample 2):
Strand	E-score
CATCCTAA	0.0557
